{"data": "Published values pooled from the literature", "note": "Parts stem from different laboratories: compare values within a part only.", "chain of UniProt P42336 (whole entry, unmodified, looked up)": "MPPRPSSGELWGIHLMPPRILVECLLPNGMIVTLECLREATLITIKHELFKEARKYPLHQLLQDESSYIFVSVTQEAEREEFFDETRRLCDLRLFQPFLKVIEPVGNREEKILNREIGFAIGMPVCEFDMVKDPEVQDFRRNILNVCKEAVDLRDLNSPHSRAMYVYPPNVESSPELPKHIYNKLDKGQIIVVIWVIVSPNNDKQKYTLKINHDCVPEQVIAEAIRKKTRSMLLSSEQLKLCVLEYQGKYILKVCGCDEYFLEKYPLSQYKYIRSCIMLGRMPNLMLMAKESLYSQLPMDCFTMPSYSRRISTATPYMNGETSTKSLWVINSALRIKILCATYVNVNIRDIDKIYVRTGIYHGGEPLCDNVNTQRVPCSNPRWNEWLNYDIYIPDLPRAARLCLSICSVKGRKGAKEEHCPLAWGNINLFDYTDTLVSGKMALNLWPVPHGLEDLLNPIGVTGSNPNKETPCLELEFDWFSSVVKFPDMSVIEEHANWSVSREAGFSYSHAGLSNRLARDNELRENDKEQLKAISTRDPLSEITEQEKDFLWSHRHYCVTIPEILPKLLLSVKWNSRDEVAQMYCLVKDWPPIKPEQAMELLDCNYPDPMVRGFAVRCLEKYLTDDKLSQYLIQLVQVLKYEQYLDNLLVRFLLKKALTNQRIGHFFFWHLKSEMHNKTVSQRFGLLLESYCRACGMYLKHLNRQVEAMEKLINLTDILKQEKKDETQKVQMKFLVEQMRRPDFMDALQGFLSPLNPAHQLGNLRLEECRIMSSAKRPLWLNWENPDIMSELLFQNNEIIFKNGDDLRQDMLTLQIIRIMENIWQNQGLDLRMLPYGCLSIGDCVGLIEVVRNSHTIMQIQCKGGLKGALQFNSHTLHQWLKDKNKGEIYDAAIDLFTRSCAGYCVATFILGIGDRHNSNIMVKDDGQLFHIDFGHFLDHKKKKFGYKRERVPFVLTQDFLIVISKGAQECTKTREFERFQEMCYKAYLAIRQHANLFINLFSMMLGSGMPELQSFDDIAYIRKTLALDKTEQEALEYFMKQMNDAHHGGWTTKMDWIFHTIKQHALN", "chain of UniProt P07333 (whole entry, looked up)": "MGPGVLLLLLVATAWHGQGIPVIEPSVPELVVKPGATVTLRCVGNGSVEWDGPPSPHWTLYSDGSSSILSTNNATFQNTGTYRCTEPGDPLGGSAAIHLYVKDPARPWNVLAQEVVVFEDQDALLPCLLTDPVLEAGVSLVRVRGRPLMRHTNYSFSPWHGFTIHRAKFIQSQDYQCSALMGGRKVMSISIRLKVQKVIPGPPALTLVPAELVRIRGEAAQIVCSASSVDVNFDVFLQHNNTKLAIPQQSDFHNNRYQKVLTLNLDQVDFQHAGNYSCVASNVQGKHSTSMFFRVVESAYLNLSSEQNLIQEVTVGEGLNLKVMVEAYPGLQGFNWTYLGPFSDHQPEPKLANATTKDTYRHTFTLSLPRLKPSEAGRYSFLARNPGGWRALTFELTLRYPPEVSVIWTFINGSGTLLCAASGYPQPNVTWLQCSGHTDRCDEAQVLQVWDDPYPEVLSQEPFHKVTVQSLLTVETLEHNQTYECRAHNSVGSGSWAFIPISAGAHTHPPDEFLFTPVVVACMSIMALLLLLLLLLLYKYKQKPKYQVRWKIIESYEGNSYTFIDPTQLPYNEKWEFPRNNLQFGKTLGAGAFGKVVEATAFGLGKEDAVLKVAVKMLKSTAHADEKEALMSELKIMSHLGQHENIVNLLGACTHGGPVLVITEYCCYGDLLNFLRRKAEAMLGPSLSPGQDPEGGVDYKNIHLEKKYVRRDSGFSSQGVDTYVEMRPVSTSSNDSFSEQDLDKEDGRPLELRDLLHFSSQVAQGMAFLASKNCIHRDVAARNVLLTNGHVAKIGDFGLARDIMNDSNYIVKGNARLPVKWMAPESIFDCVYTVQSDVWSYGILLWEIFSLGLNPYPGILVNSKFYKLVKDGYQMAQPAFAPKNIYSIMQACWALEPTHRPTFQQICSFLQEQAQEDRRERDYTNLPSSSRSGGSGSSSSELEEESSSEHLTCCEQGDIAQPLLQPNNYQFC", "chain of UniProt P00519 (whole entry, unmodified, looked up)": "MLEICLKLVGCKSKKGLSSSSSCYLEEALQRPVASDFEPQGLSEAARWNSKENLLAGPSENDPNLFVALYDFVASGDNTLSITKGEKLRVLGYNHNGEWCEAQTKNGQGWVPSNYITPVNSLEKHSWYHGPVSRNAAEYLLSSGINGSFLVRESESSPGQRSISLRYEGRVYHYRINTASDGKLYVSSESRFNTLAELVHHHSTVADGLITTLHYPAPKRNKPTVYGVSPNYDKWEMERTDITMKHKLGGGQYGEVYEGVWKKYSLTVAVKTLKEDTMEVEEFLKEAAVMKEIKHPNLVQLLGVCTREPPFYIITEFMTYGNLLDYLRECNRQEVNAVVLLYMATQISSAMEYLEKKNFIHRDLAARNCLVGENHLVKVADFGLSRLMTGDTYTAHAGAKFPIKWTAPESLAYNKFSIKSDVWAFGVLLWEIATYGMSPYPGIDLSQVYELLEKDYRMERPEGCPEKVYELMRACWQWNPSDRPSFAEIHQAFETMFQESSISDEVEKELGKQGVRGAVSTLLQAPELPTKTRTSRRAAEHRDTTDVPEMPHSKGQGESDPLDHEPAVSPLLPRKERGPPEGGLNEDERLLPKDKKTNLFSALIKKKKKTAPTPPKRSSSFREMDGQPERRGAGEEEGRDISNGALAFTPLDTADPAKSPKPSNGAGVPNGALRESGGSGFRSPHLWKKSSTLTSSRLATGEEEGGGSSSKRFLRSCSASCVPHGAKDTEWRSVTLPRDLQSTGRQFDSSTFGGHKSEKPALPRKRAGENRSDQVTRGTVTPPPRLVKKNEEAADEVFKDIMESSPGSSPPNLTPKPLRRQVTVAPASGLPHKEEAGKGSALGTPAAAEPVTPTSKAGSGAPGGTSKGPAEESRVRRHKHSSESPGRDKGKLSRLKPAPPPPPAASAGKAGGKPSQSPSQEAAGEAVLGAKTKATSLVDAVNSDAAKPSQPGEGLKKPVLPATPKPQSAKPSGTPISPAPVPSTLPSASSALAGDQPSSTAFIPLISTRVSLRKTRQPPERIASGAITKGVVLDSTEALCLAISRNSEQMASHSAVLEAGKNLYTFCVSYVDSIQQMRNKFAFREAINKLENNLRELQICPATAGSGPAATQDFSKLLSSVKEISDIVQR", "chain of UniProt Q9Y6E0 (whole entry, looked up)": "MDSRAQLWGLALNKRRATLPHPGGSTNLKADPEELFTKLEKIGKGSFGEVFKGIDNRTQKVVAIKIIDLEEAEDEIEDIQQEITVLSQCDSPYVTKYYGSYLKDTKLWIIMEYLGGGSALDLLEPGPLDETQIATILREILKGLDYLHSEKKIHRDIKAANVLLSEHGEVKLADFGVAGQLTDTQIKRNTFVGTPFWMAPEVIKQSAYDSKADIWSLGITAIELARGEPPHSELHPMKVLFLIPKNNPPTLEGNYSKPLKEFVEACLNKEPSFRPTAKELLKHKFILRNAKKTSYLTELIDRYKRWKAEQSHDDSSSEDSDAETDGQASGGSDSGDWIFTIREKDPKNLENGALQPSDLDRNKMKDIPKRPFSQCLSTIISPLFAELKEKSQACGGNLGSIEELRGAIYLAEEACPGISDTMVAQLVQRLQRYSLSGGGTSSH", "chain of UniProt O14757 (whole entry, looked up)": "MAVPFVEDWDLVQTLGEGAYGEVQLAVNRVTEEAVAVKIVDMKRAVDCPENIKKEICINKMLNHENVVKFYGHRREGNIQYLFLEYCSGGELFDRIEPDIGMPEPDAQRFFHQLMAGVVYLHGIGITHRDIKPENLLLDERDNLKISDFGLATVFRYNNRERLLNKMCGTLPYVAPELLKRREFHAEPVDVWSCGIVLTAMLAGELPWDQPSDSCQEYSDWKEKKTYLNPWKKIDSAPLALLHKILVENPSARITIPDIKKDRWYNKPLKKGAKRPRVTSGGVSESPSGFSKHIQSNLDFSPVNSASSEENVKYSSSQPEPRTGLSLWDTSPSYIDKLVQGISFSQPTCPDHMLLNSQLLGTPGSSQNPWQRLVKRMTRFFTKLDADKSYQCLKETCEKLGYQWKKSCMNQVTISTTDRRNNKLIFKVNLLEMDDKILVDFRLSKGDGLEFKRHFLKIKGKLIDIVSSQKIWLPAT", "chain of UniProt P42679 (whole entry, looked up)": "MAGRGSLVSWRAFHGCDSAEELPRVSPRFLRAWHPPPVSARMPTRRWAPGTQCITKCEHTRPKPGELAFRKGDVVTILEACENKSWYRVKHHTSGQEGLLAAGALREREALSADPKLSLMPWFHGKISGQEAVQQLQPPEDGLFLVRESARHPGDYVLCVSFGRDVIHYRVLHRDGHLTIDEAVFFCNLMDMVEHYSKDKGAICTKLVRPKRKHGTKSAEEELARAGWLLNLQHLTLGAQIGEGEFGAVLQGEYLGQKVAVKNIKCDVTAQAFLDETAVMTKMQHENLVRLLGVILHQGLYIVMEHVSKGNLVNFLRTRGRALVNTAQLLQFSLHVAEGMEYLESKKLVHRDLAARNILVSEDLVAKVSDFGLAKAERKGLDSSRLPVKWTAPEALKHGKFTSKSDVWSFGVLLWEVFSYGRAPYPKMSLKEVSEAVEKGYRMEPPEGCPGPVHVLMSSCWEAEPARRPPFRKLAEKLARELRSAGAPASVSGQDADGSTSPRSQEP"}
{"data": "Set 1", "Structure (SMILES)": "CN1CCN(C(=O)c2ccc(NC(=O)Nc3ccc(N(C)c4ccnc(Nc5ccc(CS(C)(=O)=O)cc5)n4)cc3)cc2)CC1", "tested at": "1 µM"}
{"target": "PDGFRB (Homo sapiens, UniProt P09619)", "remaining activity [%]": 0}
{"target": "CIT (Homo sapiens, UniProt O14578)", "remaining activity [%]": 79}
{"target": "CSF1R (Homo sapiens, UniProt P07333)", "remaining activity [%]": 0}
{"data": "Set 2", "species": "mouse", "sample": "microsomes or S9", "tested at": "2 µM", "time": "0.5 h"}
{"SMILES": "CCCc1ncc(C(O)c2ccc(OCC)cc2)n1C (stereo not shown)", "remaining compound": "0.0193%"}
{"SMILES": "CCOc1ccc(OCC)c(NC(=O)c2cc(S(=O)(=O)N3CCc4ccccc43)cn2C)c1", "remaining compound": "0.289%"}
{"SMILES": "CC(=O)c1c(C)cn(CC(O)CN2CCNCC2)c1C (stereo not shown)", "remaining compound": "> 99.9%"}
{"SMILES": "Nc1nc(N2CCN(c3ncccn3)CC2)c2nc[nH]c2n1", "remaining compound": "68.6%"}
{"SMILES": "COc1cc(-c2nc3c(s2)CNCC3)cc(OC)c1OC", "remaining compound": "70.8%"}
{"data": "Set 3", "cell line": "Huh-7", "tested at": "10 µM", "time": "24 h"}
{"SMILES": "Nc1ncnc2c1ncn2[C@@H]1O[C@H](CO)[C@@H](O)[C@H]1O", "viability": "101%"}
{"SMILES": "COc1ccc(-c2cc(C(F)F)nn2-c2ccc(S(N)(=O)=O)cc2)cc1F", "viability": "96.3%"}
{"SMILES": "Oc1ncnc2[nH]ncc12", "viability": "97.5%"}
{"data": "Set 4", "cell line": "mouse MPNST tumor cells", "method": "high-content nuclear imaging", "measured": "cell number", "tested at": "10 µM", "time": "12 h", "setting": "mean of 2 replicates", "reference": "plate mean", "reading": "higher = more cells"}
{"Compound": "C=C1/C(=C\\C=C2/CCC[C@]3(C)[C@@H]([C@H](C)/C=C/[C@@H](O)C4CC4)CC[C@@H]23)C[C@@H](O)C[C@@H]1O", "nuclei count": "-2.53 z-score"}
{"Compound": "O=C(Nc1ccc(Cl)c(Cl)c1)Nc1ccc(Cl)c(Cl)c1", "nuclei count": "0.714 z-score"}
{"Compound": "CCCCOc1cc(CC2CNC(=O)N2)ccc1OC (stereo not shown)", "nuclei count": "0.799 z-score"}
{"Compound": "Cc1cc(C)c(-n2ccn3nc(-c4cccnc4)cc23)cc1NC(=O)c1cc(C#N)cc(S(F)(F)(F)(F)F)c1", "nuclei count": "0.86 z-score"}
{"data": "Set 5", "Structure (SMILES)": "CCC(=N\\O)/C(C)=C/c1ccc(F)cc1", "tested at": "1 µM"}
{"target": "CDK4 (Homo sapiens, UniProt P11802)", "read-out": "cell-free assay", "method": "competition with immobilised ligand", "remaining binding [%]": 100}
{"target": "ANKK1 (Homo sapiens, UniProt Q8NFD2)", "read-out": "cell-free assay", "method": "competition with immobilised ligand", "remaining binding [%]": 79}
{"target": "PIK3CA (Homo sapiens, UniProt P42336, E545K)", "read-out": "cell-free assay", "method": "competition with immobilised ligand", "remaining binding [%]": 100}
{"target": "KIT (Homo sapiens, UniProt P10721, D816H)", "read-out": "cell-free assay", "method": "competition with immobilised ligand", "remaining binding [%]": 65}
{"target": "MATK (Homo sapiens, UniProt P42679)", "read-out": "cell-free assay", "method": "competition with immobilised ligand", "remaining binding [%]": 72}
{"target": "PIK3CA (Homo sapiens, UniProt P42336, H1047L)", "read-out": "cell-free assay", "method": "competition with immobilised ligand", "remaining binding [%]": 100}
{"target": "SYK (Homo sapiens, UniProt P43405)", "read-out": "cell-free assay", "method": "competition with immobilised ligand", "remaining binding [%]": 100}
{"target": "WNK4 (Homo sapiens, UniProt Q96J92)", "read-out": "cell-free assay", "method": "competition with immobilised ligand", "remaining binding [%]": 100}
{"target": "MAP3K5 (Homo sapiens, UniProt Q99683)", "read-out": "cell-free assay", "method": "competition with immobilised ligand", "remaining binding [%]": 93}
{"target": "IGF1R (Homo sapiens, UniProt P08069)", "read-out": "cell-free assay", "method": "competition with immobilised ligand", "remaining binding [%]": 79}
{"target": "DDR2 (Homo sapiens, UniProt Q16832)", "read-out": "cell-free assay", "method": "competition with immobilised ligand", "remaining binding [%]": 91}
{"target": "CHEK1 (Homo sapiens, UniProt O14757)", "read-out": "cell-free assay", "method": "competition with immobilised ligand", "remaining binding [%]": 83}
{"target": "Ribosomal protein S6 kinase alpha-5, C-terminal kinase domain (RPS6KA5, Homo sapiens, UniProt O75582)", "read-out": "cell-free assay", "method": "competition with immobilised ligand", "remaining binding [%]": 100}
{"target": "GAK (Homo sapiens, UniProt O14976)", "read-out": "cell-free assay", "method": "competition with immobilised ligand", "remaining binding [%]": 99}
{"target": "STK24 (Homo sapiens, UniProt Q9Y6E0)", "read-out": "cell-free assay", "method": "competition with immobilised ligand", "remaining binding [%]": 100}
{"target": "CDK11B (Homo sapiens, UniProt P21127)", "read-out": "cell-free assay", "method": "competition with immobilised ligand", "remaining binding [%]": 89}
{"target": "PIK3CA (Homo sapiens, UniProt P42336, E545A)", "read-out": "cell-free assay", "method": "competition with immobilised ligand", "remaining binding [%]": 76}
{"target": "EGFR (Homo sapiens, UniProt P00533, del747-752/P753S)", "read-out": "cell-free assay", "method": "competition with immobilised ligand", "remaining binding [%]": 67}
{"target": "Tyrosine-protein kinase ABL1, non-phosphorylated (ABL1, Homo sapiens, UniProt P00519, F317I)", "read-out": "cell-free assay", "method": "competition with immobilised ligand", "remaining binding [%]": 100}
{"target": "PLK3 (Homo sapiens, UniProt Q9H4B4)", "read-out": "cell-free assay", "method": "competition with immobilised ligand", "remaining binding [%]": 86}
{"target": "CSF1R (Homo sapiens, UniProt P07333)", "read-out": "cell-free assay", "method": "competition with immobilised ligand", "remaining binding [%]": 91}
{"target": "MERTK (Homo sapiens, UniProt Q12866)", "read-out": "cell-free assay", "method": "competition with immobilised ligand", "remaining binding [%]": 100}
{"target": "ABL1 (Homo sapiens, UniProt P00519, E255K)", "method": "KINOMEscan", "setting": "E255K mutant, phosphorylated", "reference": "control", "remaining binding [%]": 52}
{"target": "CAMK4 (Homo sapiens, UniProt Q16566)", "read-out": "cell-free assay", "method": "competition with immobilised ligand", "remaining binding [%]": 69}
{"target": "CDK2 (Homo sapiens, UniProt P24941)", "read-out": "cell-free assay", "method": "competition with immobilised ligand", "remaining binding [%]": 82}
{"data": "Set 6", "read-out": "AlphaScreen signal", "method": "AlphaScreen counter screen", "sample": "His6 peptide without bromodomain", "tested at": "50 µM", "setting": "assay interference check"}
{"Structure (SMILES)": "CCN(CCO)CCCOc1ccc2c(Nc3cc(CC(=O)Nc4cccc(F)c4)[nH]n3)ncnc2c1", "inhibition": "36.8%"}
{"Structure (SMILES)": "CCOc1cc2ncnc(Nc3cccc(Br)c3)c2cc1OCC", "inhibition": "30.7%"}
{"Structure (SMILES)": "Cc1cc(C(C)Nc2ccccc2)c2nc(N3CCOCC3)cc(=O)n2c1 (stereo not shown)", "inhibition": "33.6%"}
{"Structure (SMILES)": "CC(c1ccccc1)n1c(=O)[nH]c2ncc(-c3cccnc3)nc21 (stereo not shown)", "inhibition": "18.8%"}
{"Structure (SMILES)": "NC(=O)c1ccc(-c2nc(-c3ccc4c(c3)OCO4)c(-c3ccccn3)[nH]2)cc1", "inhibition": "32.5%"}
{"data": "Set 7", "cell line": "A-375", "tested at": "100 µM", "time": "36 h"}
{"SMILES": "OC[C@H]1O[C@@H](c2ccc(Cl)c(Cc3ccc(O[C@H]4CCOC4)cc3)c2)[C@H](O)[C@@H](O)[C@@H]1O", "viability": "103%"}
{"SMILES": "NC(=O)c1ncn([C@@H]2O[C@H](CO)[C@@H](O)[C@H]2O)c1O", "viability": "108%"}
{"SMILES": "CC1=C(C(=O)O)N2C(=O)[C@@H](NC(=O)[C@H](N)c3ccc(O)cc3)[C@H]2SC1", "viability": "104%"}
{"SMILES": "CC1=NS(=O)(=O)c2cc(Cl)ccc2N1", "viability": "106%"}
{"SMILES": "Cc1cn([C@H]2O[C@@H](CO)[C@H](O)[C@H]2F)c(=O)[nH]c1=O", "viability": "102%"}
{"data": "Mixed results", "target": "Calcium/calmodulin-dependent protein kinase type II subunit alpha (CAMK2A, Homo sapiens, UniProt Q9UQM7)", "read-out": "enzyme activity", "action": "inhibitor", "tested at": "10 µM", "chain of UniProt Q9UQM7 (whole entry, looked up)": "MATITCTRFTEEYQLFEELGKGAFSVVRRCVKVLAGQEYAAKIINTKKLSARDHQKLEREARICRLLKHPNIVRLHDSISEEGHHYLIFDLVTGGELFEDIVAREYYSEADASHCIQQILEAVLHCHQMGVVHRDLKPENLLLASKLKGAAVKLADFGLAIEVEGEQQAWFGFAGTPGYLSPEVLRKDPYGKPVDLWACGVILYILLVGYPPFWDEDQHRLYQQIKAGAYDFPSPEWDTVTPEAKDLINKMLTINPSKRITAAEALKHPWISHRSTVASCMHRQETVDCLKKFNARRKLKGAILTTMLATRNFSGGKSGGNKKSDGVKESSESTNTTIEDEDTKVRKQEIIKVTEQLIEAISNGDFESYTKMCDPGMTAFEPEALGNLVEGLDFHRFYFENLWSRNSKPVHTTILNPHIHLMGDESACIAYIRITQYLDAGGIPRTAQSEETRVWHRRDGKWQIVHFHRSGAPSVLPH"}
{"Structure (SMILES)": "CCC(=O)O[C@H](CC(=O)O)C[N+](C)(C)C", "inhibition [%]": -3}
{"Structure (SMILES)": "C#CCN[C@H]1CCc2ccccc21", "inhibition [%]": -4}
